Results from different studies.
Compare with care: the assays were run in different laboratories. ± marks the error that the study gave. ≈ marks a conversion by molar mass, not a printed value.
Sequence of UniProt Q9NQS5 (whole entry, looked up): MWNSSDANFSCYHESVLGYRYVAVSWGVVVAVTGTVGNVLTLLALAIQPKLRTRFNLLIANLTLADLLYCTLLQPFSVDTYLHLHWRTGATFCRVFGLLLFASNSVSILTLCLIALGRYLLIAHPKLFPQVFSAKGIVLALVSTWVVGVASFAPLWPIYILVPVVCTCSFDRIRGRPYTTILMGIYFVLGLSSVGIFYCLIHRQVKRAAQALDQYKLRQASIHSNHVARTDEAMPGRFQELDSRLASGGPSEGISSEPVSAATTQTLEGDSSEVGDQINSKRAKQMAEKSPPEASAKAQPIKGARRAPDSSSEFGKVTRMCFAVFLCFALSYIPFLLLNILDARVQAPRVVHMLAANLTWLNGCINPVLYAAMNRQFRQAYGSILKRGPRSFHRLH
Sequence of UniProt Q9HAW9 (whole entry, looked up): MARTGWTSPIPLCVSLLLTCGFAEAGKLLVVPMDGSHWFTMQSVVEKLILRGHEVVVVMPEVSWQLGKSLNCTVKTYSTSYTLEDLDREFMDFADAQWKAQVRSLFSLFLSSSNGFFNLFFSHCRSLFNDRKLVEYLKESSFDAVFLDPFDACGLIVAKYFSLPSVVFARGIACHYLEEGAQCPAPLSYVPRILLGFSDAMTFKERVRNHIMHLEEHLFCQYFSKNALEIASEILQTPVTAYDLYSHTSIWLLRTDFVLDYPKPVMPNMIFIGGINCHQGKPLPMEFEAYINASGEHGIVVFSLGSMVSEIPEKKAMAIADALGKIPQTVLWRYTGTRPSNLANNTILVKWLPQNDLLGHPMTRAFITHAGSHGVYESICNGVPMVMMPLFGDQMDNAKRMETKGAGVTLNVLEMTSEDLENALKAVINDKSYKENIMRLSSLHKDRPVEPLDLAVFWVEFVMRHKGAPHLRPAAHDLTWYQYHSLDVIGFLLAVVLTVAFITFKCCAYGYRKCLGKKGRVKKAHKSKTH
Sequence of UniProt Q92731 (whole entry, looked up): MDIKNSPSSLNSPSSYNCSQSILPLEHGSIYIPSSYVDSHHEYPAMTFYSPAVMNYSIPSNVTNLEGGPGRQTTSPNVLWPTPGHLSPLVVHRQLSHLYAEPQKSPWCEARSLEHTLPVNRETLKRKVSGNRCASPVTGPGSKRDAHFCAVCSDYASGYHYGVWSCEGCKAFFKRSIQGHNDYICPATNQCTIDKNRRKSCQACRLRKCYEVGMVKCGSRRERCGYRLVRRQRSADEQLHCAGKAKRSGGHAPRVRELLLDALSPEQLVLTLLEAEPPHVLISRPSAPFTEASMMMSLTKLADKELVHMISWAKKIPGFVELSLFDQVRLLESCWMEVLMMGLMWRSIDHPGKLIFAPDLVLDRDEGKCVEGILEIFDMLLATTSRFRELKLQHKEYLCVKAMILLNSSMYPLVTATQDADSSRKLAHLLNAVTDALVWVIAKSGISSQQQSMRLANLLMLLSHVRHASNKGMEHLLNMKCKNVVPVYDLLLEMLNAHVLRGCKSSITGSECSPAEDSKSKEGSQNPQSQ

Structure (SMILES)	tested on	assay	system	conditions	how to read	quantity	result
CC(C)=CCc1cc2c(cc1O)O[C@H](c1ccc(O)cc1)CC2=O	UGT1A8 (Homo sapiens, UniProt Q9HAW9)	glucuronidation, substrate	recombinant enzyme	pH 7.4	–	CLint	248 µL/min/mg
CNC(C)C(=O)O (racemic)	HCT-8	Hoechst nuclei count	–	1 mM, 24 h	reference: PBS	host cell number	1.02 ± 0.019
O=C(O)c1ccc(NCc2ccc([N+](=O)[O-])cc2)cc1	HGF	cell viability, resazurin	–	72 h, 10% FBS	–	IC50	> 100 µM
O=C(Nc1nc2cccc(-c3ccc(CN4CCS(=O)(=O)CC4)cc3)n2n1)C1CC1	–	item: chills	human rheumatoid arthritis patients	oral, 75 mg once daily, 4 weeks, regardless of relatedness	–	treatment-emergent adverse events	0%
FC(F)(F)c1ccc(Nc2nc3ccc(Oc4ccnc(-c5ncc(C(F)(F)F)[nH]5)c4)cc3[nH]2)cc1	ESR2 (Homo sapiens, UniProt Q92731)	array formation, agonist	GFP-ERβ PRL-HeLa	1 h	–	EC50	4.55 µM
CSCCCNc1cc(=O)[nH]c(=O)[nH]1	GPR84 (Homo sapiens, UniProt Q9NQS5)	cAMP level, agonist	human cells	–	–	EC50	22.6 ± 3.1 µM
Cc1cc(N)c2c(OCC(C)(C)C(=O)NC(C)C)cccc2n1	Salmonella typhimurium	reverse mutation, plate incorporation	TA98	1000 µg/plate, with rat liver S9	–	mean revertant colonies	18 colonies/plate
CCCCc1oc2ccc(NS(C)(=O)=O)cc2c1C(=O)c1ccc(OCCCN(CCCC)CCCC)cc1	Nedd8-cullin1 interaction	neddylation, AlphaScreen	–	100 µM	–	inhibition	-38.7%
COc1cc2[nH]c(C)c(-c3ccc(N(C)C)cc3)c(=O)c2cc1Cl	–	–	–	pH 7.4	–	kinetic solubility	2 to 6 µM (≈ 0.686 to 2.06 µg/mL)
COc1cccc(CNc2ccc(C(=O)O)cc2)c1O	HGF	cell viability, resazurin	–	72 h, 10% FBS	–	IC50	> 100 µM
CC[C@H](CO)N(CCN(N=O)[C@H](CC)CO)N=O	Salmonella typhimurium	mutagenicity, Ames plate incorporation	TA1537	5000 µg/plate, without S9, methanol	–	revertant colonies per plate	15.3 ± 4
Cc1cc(Nc2ccc(S(F)(F)(F)(F)F)cc2)n2nc(C(C)(F)F)nc2n1	Plasmodium falciparum	–	P. falciparum malaria patients	oral, 250 mg	–	patients with sinus bradycardia	0%
NS(=O)(=O)c1cc2c(cc1Cl)N=C(CSCc1ccccc1)NS2(=O)=O	Nedd8-cullin1 interaction	neddylation, AlphaScreen	–	100 µM	–	inhibition	93%
Cc1cc(C(=O)NC(C)(C)COc2cccc3c2C(N)=NS(=O)(=O)N3)cc(C)n1	human peripheral blood lymphocytes	in vitro micronucleus test	0.2% DMSO	1000 µg/mL, 24 h	–	micronucleated binucleated cells	0.3%

Repeated from above:
Structure (SMILES)	tested on	assay	system	conditions	how to read	quantity	result
CC[C@H](CO)N(CCN(N=O)[C@H](CC)CO)N=O	Salmonella typhimurium	mutagenicity, Ames plate incorporation	TA1537	5000 µg/plate, without S9, methanol	–	revertant colonies per plate	15.3 ± 4
Cc1cc(Nc2ccc(S(F)(F)(F)(F)F)cc2)n2nc(C(C)(F)F)nc2n1	Plasmodium falciparum	–	P. falciparum malaria patients	oral, 250 mg	–	patients with sinus bradycardia	0%
